Assay results collected from several papers.
Each numbered part is a random draw from the data of one study; scales do not carry over between parts.
UniProt Q9UK32, sequence (whole entry, looked up): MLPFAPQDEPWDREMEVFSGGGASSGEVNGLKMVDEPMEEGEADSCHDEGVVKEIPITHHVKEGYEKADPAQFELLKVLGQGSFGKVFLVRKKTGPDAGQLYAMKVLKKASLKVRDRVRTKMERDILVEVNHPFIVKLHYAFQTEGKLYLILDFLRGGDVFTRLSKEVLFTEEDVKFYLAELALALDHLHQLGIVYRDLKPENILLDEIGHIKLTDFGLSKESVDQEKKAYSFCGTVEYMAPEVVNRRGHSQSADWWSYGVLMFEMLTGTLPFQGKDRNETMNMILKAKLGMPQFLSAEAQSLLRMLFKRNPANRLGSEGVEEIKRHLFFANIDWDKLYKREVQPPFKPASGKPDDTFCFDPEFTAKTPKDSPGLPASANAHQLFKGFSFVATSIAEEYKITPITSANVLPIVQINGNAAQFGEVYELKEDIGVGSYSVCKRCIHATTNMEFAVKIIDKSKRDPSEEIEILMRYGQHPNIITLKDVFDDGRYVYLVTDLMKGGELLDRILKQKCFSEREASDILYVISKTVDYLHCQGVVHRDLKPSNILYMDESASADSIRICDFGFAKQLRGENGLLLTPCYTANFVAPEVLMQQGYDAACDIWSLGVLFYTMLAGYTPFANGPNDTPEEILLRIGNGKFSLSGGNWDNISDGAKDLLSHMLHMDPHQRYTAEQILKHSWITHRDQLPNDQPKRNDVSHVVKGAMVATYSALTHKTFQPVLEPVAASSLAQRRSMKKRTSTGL
UniProt Q9H2K8, sequence (whole entry, looked up): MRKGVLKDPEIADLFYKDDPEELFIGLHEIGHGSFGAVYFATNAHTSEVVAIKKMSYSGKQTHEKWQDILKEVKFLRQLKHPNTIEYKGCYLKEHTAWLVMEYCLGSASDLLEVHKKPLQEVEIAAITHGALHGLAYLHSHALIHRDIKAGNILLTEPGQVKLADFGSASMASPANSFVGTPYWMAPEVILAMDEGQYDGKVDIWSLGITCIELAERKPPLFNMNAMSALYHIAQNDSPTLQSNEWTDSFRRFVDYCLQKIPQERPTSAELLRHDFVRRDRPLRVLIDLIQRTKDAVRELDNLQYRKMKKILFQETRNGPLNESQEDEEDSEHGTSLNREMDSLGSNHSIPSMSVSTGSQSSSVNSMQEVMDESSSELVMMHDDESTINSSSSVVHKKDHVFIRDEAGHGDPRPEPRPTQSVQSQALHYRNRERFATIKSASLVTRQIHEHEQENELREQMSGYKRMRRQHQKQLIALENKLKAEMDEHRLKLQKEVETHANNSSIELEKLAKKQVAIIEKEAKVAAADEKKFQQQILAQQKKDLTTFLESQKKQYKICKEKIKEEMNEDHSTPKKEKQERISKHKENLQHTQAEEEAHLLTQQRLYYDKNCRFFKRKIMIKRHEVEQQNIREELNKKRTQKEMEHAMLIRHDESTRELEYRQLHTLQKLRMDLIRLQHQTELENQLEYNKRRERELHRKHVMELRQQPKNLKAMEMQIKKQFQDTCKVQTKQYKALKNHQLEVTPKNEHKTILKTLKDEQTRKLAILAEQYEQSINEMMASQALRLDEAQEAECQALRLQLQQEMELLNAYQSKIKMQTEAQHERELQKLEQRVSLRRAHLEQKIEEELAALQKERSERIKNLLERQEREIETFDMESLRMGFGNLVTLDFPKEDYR
UniProt Q14680, sequence (whole entry, looked up): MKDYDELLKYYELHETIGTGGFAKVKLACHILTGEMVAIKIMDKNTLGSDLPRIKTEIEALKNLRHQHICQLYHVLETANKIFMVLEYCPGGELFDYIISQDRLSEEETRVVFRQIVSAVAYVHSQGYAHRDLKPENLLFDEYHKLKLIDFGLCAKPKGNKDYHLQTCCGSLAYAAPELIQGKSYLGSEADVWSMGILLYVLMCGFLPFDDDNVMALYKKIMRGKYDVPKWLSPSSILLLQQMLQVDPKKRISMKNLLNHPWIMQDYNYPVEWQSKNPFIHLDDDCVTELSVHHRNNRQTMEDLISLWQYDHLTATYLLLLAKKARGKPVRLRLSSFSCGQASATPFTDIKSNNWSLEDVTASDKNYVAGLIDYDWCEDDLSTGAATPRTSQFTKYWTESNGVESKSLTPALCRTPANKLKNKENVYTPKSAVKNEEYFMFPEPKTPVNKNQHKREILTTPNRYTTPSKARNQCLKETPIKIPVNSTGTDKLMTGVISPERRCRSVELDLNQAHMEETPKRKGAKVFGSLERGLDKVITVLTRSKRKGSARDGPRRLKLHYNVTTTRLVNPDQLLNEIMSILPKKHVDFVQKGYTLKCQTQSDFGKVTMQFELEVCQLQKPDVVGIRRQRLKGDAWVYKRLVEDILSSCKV
UniProt P53350, sequence (whole entry, looked up): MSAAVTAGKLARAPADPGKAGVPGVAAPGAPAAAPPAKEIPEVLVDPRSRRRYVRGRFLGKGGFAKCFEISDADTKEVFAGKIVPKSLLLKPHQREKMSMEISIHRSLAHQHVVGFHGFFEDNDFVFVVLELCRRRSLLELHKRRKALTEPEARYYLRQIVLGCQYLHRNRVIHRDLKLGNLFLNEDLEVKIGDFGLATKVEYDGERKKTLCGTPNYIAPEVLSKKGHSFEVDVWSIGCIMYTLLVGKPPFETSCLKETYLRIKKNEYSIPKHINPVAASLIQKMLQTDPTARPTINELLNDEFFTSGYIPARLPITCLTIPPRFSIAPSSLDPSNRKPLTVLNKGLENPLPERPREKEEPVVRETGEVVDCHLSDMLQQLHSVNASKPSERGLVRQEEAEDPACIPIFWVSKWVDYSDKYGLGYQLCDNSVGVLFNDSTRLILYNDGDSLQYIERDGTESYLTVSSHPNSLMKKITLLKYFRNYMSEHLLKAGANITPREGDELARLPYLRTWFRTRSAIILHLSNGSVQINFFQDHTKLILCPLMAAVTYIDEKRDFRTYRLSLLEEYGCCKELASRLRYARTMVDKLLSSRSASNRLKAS
UniProt P29322, sequence (whole entry, looked up): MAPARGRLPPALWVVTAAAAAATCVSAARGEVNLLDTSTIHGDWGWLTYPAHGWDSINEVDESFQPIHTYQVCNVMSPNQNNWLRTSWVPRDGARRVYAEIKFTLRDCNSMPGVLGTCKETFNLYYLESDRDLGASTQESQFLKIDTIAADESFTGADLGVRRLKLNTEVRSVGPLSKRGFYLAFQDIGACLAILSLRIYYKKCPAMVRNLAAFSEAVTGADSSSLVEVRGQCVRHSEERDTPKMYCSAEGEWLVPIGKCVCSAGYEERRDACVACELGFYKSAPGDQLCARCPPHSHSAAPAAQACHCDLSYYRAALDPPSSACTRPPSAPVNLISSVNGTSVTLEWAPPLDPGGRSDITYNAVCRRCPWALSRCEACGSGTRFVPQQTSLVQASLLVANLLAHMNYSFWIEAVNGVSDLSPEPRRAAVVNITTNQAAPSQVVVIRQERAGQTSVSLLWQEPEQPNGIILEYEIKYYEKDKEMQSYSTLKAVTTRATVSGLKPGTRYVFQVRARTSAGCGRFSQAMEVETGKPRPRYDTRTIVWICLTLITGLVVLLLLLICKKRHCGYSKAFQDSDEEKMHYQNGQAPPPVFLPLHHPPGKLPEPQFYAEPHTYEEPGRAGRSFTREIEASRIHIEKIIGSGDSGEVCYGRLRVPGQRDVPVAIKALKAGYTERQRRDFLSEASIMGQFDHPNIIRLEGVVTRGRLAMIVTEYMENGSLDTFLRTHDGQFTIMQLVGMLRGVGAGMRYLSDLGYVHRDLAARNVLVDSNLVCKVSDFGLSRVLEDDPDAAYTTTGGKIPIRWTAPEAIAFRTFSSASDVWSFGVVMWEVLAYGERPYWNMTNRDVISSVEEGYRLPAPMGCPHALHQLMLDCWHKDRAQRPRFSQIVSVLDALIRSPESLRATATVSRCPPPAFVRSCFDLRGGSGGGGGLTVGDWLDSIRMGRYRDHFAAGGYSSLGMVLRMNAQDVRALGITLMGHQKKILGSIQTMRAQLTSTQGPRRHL
UniProt P00519, sequence (whole entry, unmodified, looked up): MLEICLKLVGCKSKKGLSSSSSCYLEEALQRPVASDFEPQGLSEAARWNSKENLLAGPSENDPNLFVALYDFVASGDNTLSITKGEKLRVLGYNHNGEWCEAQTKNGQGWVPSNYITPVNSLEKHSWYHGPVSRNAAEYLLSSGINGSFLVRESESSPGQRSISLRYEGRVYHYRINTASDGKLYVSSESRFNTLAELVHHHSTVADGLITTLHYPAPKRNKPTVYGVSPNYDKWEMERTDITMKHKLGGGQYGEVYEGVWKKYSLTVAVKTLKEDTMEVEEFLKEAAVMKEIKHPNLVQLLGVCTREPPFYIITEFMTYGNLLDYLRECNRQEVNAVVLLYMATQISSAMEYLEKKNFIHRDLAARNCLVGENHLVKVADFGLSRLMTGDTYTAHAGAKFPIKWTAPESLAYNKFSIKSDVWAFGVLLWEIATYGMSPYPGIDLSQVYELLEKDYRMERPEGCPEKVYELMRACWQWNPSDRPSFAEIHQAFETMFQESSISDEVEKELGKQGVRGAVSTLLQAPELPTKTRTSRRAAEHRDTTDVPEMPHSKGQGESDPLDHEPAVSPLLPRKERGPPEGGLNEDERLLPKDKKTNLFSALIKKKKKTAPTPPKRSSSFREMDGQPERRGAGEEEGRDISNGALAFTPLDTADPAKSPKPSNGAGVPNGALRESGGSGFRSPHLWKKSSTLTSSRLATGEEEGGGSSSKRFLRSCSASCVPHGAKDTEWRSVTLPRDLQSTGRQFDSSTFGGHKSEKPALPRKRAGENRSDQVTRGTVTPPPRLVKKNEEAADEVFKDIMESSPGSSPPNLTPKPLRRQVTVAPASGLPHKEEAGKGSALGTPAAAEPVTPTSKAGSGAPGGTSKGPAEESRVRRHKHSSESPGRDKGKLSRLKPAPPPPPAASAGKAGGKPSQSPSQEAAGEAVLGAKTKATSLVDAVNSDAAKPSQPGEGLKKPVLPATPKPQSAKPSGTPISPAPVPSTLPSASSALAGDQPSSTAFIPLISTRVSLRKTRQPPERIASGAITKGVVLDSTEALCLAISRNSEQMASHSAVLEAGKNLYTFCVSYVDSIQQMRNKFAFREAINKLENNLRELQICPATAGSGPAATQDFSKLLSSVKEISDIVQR

Study 1 — technique: immunoblot; item: phospho-ERK; host: Mus musculus; reference: DMSO
SMILES: C[C@@H]1OCC2(CCN(c3cnc(Sc4ccnc(N)c4Cl)c(N)n3)CC2)[C@@H]1N
| test system | conditions | ERK phosphorylation [%] |
| --- | --- | --- |
| Ba/F3 KRAS G12C | 0.1 µM | 69 |
| Ba/F3 KRAS Q61R | 1 µM | 102 |
| Ba/F3 KRAS G12C | 1 µM | 43 |
| Ba/F3 KRAS Q61R | 0.1 µM | 111 |
| Ba/F3 NRAS Q61R | 0.1 µM | 119 |
| Ba/F3 NRAS Q61R | 1 µM | 132 |

Study 2 — effect on: enzyme activity; action: inhibitor; concentration: 0.5 µM; reference: control
Target: Serine/threonine-protein kinase 17A (STK17A, Homo sapiens, UniProt Q9UEE5)
Residues (Q9UEE5 1-414): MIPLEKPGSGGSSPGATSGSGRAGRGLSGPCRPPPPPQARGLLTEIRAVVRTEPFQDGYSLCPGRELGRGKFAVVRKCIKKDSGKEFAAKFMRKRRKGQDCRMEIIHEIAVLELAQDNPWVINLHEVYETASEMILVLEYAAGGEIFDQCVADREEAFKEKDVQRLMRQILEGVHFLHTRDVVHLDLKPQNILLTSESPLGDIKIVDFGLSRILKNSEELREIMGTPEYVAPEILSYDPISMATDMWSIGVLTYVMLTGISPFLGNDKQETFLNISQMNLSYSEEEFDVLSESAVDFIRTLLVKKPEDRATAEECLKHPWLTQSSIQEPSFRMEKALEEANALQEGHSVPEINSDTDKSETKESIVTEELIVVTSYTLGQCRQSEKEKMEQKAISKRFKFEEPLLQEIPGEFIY
| Compound | remaining activity |
| --- | --- |
| CCC(=O)Nc1ccc2ncnc(Nc3cccc(Br)c3)c2c1 | 88.7% |
| COc1cc2ncnc(Nc3ccc(OCc4ccccc4)cc3)c2cc1OC | 99.6% |
| CC(=O)O/N=C1/C(c2c(O)[nH]c3cc(Br)ccc23)=Nc2ccccc21 | 72.7% |
| C[S+]([O-])c1ccc(-c2nc(-c3ccncc3)c(-c3ccc(F)cc3)[nH]2)cc1 (stereo not drawn) | 98.9% |
| Nc1[nH]nc2nnc(-c3c(-c4ccccc4)nn4ccccc34)cc12 | 99.9% |

Study 3 — concentration: 1 µM
SMILES: CC(=O)N1CCC(c2ccc(C(=O)NC(=N)N)cc2C(F)(F)F)CC1
| target | assay | remaining binding |
| --- | --- | --- |
| NEK3 (Homo sapiens, UniProt P51956) | cell-free assay, competition with immobilised ligand | 79% |
| Non-receptor tyrosine-protein kinase TYK2, JH1 (TYK2, Homo sapiens, UniProt P29597) | cell-free assay, competition with immobilised ligand | 100% |
| BMPR1B (Homo sapiens, UniProt O00238) | cell-free assay, competition with immobilised ligand | 100% |
| MKNK2 (Homo sapiens, UniProt Q9HBH9) | cell-free assay, competition with immobilised ligand | 100% |
| Ribosomal protein S6 kinase alpha-6, C-terminal kinase domain (RPS6KA6, Homo sapiens, UniProt Q9UK32) | cell-free assay, competition with immobilised ligand | 100% |
| MELK (Homo sapiens, UniProt Q14680) | cell-free assay, competition with immobilised ligand | 100% |
| STK36 (Homo sapiens, UniProt Q9NRP7) | cell-free assay, competition with immobilised ligand | 100% |
| EPHA8 (Homo sapiens, UniProt P29322) | cell-free assay, competition with immobilised ligand | 100% |
| MET (Homo sapiens, UniProt P08581, M1250T) | cell-free assay, competition with immobilised ligand | 100% |
| MYLK2 (Homo sapiens, UniProt Q9H1R3) | cell-free assay, competition with immobilised ligand | 85% |
| CDK19 (Homo sapiens, UniProt Q9BWU1) | competition binding | 100% |
| TAOK3 (Homo sapiens, UniProt Q9H2K8) | cell-free assay, competition with immobilised ligand | 86% |
| PLK1 (Homo sapiens, UniProt P53350) | cell-free assay, competition with immobilised ligand | 90% |
| GSK3B (Homo sapiens, UniProt P49841) | cell-free assay, competition with immobilised ligand | 85% |
| Tyrosine-protein kinase ABL1, non-phosphorylated (ABL1, Homo sapiens, UniProt P00519, F317L) | cell-free assay, competition with immobilised ligand | 100% |
| MAP3K15 (Homo sapiens, UniProt Q6ZN16) | cell-free assay, competition with immobilised ligand | 100% |
| MAP3K6 (Homo sapiens, UniProt O95382) | cell-free assay, competition with immobilised ligand | 86% |
| SBK1 (Homo sapiens, UniProt Q52WX2) | cell-free assay, competition with immobilised ligand | 100% |

Study 4 — cell line: HaCaT; concentration: 100 µM; time: 60 h
| Structure (SMILES) | viability |
| --- | --- |
| CN(C)c1ccc(C(=C2C=CC(=[N+](C)C)C=C2)c2ccc(N(C)C)cc2)cc1 | 21.6% |
| C/C(O)=C(\C#N)C(=O)Nc1ccc(C(F)(F)F)cc1 | 62.4% |
| Cc1c(C(=O)Nc2ccc(N3C[C@@H](C)O[C@@H](C)C3)nc2)cccc1-c1ccc(OC(F)(F)F)cc1 | 17.5% |
| c1ccc(CC2=NCCN2)cc1 | 124% |
| CC(C[N+](C)(C)C)OC(N)=O (stereo not drawn) | 136% |
| Cc1ccc(=O)n(-c2ccccc2)c1 | 140% |

Further values, each from its own experiment
| Compound | test system | conditions | measurement | value |
| --- | --- | --- | --- | --- |
| CC(C)n1cnc(-c2ccc(F)cc2)c1-c1ncc(C(=O)Nc2ccc(N3CCN(C)CC3)cc2)[nH]1 | IPF patients | 60 mg once daily, week 0 to 12 | acute exacerbation incidence | 16.7% |

Repeated from above (study 3):
| target | assay | remaining binding |
| --- | --- | --- |
| BMPR1B (Homo sapiens, UniProt O00238) | cell-free assay, competition with immobilised ligand | 100% |
| SBK1 (Homo sapiens, UniProt Q52WX2) | cell-free assay, competition with immobilised ligand | 100% |
| NEK3 (Homo sapiens, UniProt P51956) | cell-free assay, competition with immobilised ligand | 79% |
| Non-receptor tyrosine-protein kinase TYK2, JH1 (TYK2, Homo sapiens, UniProt P29597) | cell-free assay, competition with immobilised ligand | 100% |
